Published values of several laboratories.
Every numbered part comes from another study and shows a few of its results, in no order.

Block 1
Target: Interferon regulatory factor 5, full length, phosphomimetic (IRF5, Homo sapiens, UniProt Q13568-2, residues 1-514, S451D/S453D/S456D/S462D)
Method: protein-binding microarray
Molecule type: double-stranded DNA, one strand shown
Medium: in vitro
Concentration: 940 nM top
Setting: 60-bp whole probe
Added: salmon DNA 0.4 mg/ml
Reference: random background probes
Reading: higher = stronger binding
All sequences stand within: GCCTAGCAC … GTCTTGATTCGCTTGACGCTGCTG
| Strand | fitted relative affinity |
| --- | --- |
| TTAGGTTTCCACACTGGGTTAGTGCTA | 0.588 z-score |
| TTAGGTATCGTGACTGGGTTAGTGCTA | 1.47 z-score |
| TTAAGTTTCGGTATCGGTTAGTGCTAG | 15.3 z-score |
| GACGAACCGAGTTTCGAGACGTGCTAG | 3.43 z-score |
| TTAGGTTTCCGACTGCTTTAGTGCTAG | 0.78 z-score |
| TGTTTTACAGGTTCTCTTTTAGTGCTA | 0.304 z-score |
| TTAGGTATCCTTTTCCTGTAGTGCTAG | 0.778 z-score |
| GTCGGTATCGGGACTGGGGACGTGCTA | 3.7 z-score |
| GACGCTATCGGGTATCGAGACGTGCTA | 1.01 z-score |
| TTAGGTTTTCTACTGCTTTAGTGCTAG | 0.616 z-score |
| TTAGGTATCAGGTATCGGTTAGTGCTA | 5.08 z-score |
| TTAGATTTCAGTCTCAATTAGTGCTAG | 1.56 z-score |
| GACGATATGAGTTTCGAGACGTGCTAG | 3.38 z-score |
| TTAGGTATCGACTTTCAGTTAGTGCTA | 5 z-score |
| GACGAACTGAGTTTCCAGACGTGCTAG | -0.472 z-score |
| CTAGGACTGGGGACTGGGTTAGTGCTA | -0.367 z-score |
| GACGATCTCAGTTTCGCGACGTGCTAG | 1.55 z-score |
| GACGGCTTCGGGACTGGGGACGTGCTA | -0.0909 z-score |
| GTGTATATGGACGTCTGAAGGTGCTAG | -0.529 z-score |
| TCAAATAATCTTTTCACACTGTGCTAG | 0.645 z-score |
| TTAGATTCAAGTTTCGATTAGTGCTAG | 7.06 z-score |

Block 2
Target: Sal-like protein 4, full length isoform B (SALL4, Homo sapiens, UniProt Q9UJQ4-2, residues 1-616)
Method: universal PBM
Molecule type: double-stranded DNA, one strand shown
Medium: in vitro
Concentration: not given
Setting: 8-mer, flanks averaged, mean of replicates
Reading: higher = stronger binding
| Strand | E-score |
| --- | --- |
| ACCCACAG | -0.104 |
| CAGTTAGC | -0.182 |
| ACAGAAGT | 0.175 |
| CAGGCAAA | 0.0753 |
| AGATCATG | 0.0426 |
| CCCCTTCC | -0.244 |
| ACCGAGAC | -0.205 |
| AACCGATC | -0.128 |
| CCTCAACG | -0.137 |
| AGGGGTGC | -0.362 |
| GAAGCTCA | -0.093 |
| CATCACGC | -0.0949 |
| GCCCCAAA | -0.175 |
| CTGCTTTC | -0.108 |
| AGAAAGTG | -0.0561 |
| CCGAAACG | -0.197 |
| CCCGGCTA | -0.237 |
| ATGGCTTG | -0.0807 |
| AAACAGTA | 0.233 |
| CGATTCCC | -0.169 |
| AGGATTGC | -0.104 |
| ACTGGTAA | 0.141 |
| ACAGAGCC | -0.197 |
| CTAGACAG | -0.108 |
| AAGCCCAT | -0.094 |

Block 3
Target: Histone acetyltransferase KAT6A, both winged helices, GST fusion (KAT6A, Homo sapiens, UniProt Q92794, residues 1-181)
Method: protein binding microarray
Molecule type: double-stranded DNA, one strand shown
Medium: in vitro
Concentration: not given
Setting: 8-mer, flanks averaged, mean of 2 arrays, mostly near background
Reference: not given
Reading: higher = stronger binding
Target sequence (chain): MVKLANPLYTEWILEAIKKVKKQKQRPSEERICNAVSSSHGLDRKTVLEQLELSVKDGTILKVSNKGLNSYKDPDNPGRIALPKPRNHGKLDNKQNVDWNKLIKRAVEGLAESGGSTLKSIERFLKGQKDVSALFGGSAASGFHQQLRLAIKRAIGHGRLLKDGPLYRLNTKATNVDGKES
| Strand | E-score |
| --- | --- |
| AGGCGTTG | 0.0774 |
| CGTTCCGC | 0.281 |
| AGGGCTCA | -0.145 |
| GCAAAGGA | -0.0266 |
| AATCCGTC | 0.185 |
| ACGCATGG | 0.0917 |
| CCTCGTAC | 0.1 |
| AGCAACGC | 0.15 |
| GACGCGTC | 0.284 |
| GAGCTGTA | -0.227 |
| AACGTCGC | 0.0896 |
| CATTCGAG | -0.0365 |
| CAGGATTC | -0.158 |
| AGCTTCAG | -0.201 |
| AGCAGGAC | -0.129 |
| ACACCTCT | -0.0578 |
| AAGGCGCC | 0.234 |
| CGATCGCA | 0.149 |
| ACGTGGCG | 0.147 |
| GCTGACAA | 0.0407 |
| CGGACGCA | 0.199 |

Block 4
Target: Ras GTPase-activating protein-binding protein 1, C-terminal RGG region (G3BP1, Homo sapiens, UniProt Q13283)
Sequence of UniProt Q13283 (whole entry, looked up): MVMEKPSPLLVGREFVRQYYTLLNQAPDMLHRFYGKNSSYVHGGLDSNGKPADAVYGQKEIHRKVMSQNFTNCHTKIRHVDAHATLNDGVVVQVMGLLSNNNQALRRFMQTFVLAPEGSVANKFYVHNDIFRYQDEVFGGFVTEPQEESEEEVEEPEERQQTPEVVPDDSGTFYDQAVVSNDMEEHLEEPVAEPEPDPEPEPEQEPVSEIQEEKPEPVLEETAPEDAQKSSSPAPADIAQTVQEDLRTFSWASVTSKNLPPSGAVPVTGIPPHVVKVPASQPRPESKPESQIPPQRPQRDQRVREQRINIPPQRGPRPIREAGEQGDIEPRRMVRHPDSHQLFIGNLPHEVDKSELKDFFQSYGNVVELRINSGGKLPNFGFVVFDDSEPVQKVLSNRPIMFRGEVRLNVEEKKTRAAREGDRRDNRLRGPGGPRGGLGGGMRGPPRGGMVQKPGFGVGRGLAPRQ
Method: RNA Bind-n-Seq
Molecule type: RNA
Medium: in vitro
Concentration: 1 µM
Setting: whole 134-nt RNA, ends assumed
Added: 150 mM KCl
Reference: input library
Reading: higher = stronger binding
All sequences stand within: GGGAGUUCUACAGUCCGACGAUC … UGGAAUUCUCGGGUGUCAAGG
| Strand | log2 enrichment |
| --- | --- |
| ACCAAAAAGGUGGGCAUCUUUGGGAAGUGGGGCAAGGGGGGGAUAGGGAGGGGGGUAACACUUUGGGAACAGGUGGUCCCAGGUCGUUUC | -1.06 |
| UAACUUUAGAGGAGGAUCUGAUGGAUAUGGCAGUGGACGUGGACUUGGGGAUGGCUAUAAUGGGUAUGGAGGAGGACCUGGAGGUGGCAA | -0.384 |
| CUGUGCUACACAUCGUAUGUACCGAAUCGGGGCCCCCCGGGGCCCCCCGGGGCCCCCCGGGAAAGUAUUAUGUUACGCCGUUCGGAUCUG | -2.15 |
| UCAAGUCCUGUGCUACACAUCGUAUGUACCGAAUCGGAAGGGGAAGGGAAGGGGAAAGUAUUAUGUUACGCCGUUCGGAUCUGCACUUCC | 1.58 |
| UGGGAGGUGGCUUUUGUUUAUUUUUUUAGCUCAUUUCCAGGGGUGGGAAUUUUUUUUUAAUAUGUGUCAUGAAUAAAGUUGUUUUUGAAA | 2.93 |
| CCUGUGCUACACAUCGUAUGUACCGAAUCGGGAAAAAAAGGGAAAAAAAGGGAAAAAAAGGAAAGUAUUAUGUUACGCCGUUCGGAUCUG | -1.7 |
| CUCAAGUCCUGUGCUACACAUCGUAUGUACCGAAUCGGGAAGGAAGGAAGGGGAAAGUAUUAUGUUACGCCGUUCGGAUCUGCACUUCCA | -1.03 |
| UCAAGUCCUGUGCUACACAUCGUAUGUACCGAAUCGGGAAAGGGAAAGGGAGGGAAAGUAUUAUGUUACGCCGUUCGGAUCUGCACUUCC | 1.96 |
| AAGUCCUGUGCUACACAUCGUAUGUACCGAAUCGGGGAAAGGGGAAAGGAAAGGGGAAAGUAUUAUGUUACGCCGUUCGGAUCUGCACUU | 0.115 |
| UCCUGUGCUACACAUCGUAUGUACCGAAUCGGAAAAAAGGGAAAAAAGGAAAAAAGGGGAAAGUAUUAUGUUACGCCGUUCGGAUCUGCA | -1.57 |
| CUCAAGUCCUGUGCUACACAUCGUAUGUACCGAAUCGGGCCGGGCCGGGCCGGGAAAGUAUUAUGUUACGCCGUUCGGAUCUGCACUUCC | -0.052 |
| CAAGUCCUGUGCUACACAUCGUAUGUACCGAAUCGGGUUUGGGUUUUUGGGAGGGAAAGUAUUAUGUUACGCCGUUCGGAUCUGCACUUC | 1.35 |
| CAAGUCCUGUGCUACACAUCGUAUGUACCGAAUCGGGUGGGUUUUUUUGGGAGGGAAAGUAUUAUGUUACGCCGUUCGGAUCUGCACUUC | 0.616 |
| UUCACAGCCAGCAGGCAUUGGAAUAUGGCACCAAACUCGUUGGAGGAACCACUCCAGGGAAAGGAGGCCAGACACAUCUGGGCUUACCUG | -1.18 |

Block 5
Target: RNA binding protein fox-1 homolog 2, RRM domain, GST-SBP tag (RBFOX2, Homo sapiens, UniProt O43251-10, residues 100-194)
Method: RNA Bind-n-Seq
Molecule type: RNA
Medium: in vitro
Concentration: 365 nM
Setting: natural RNA segment, single round, ends assumed
Reference: no-protein control
Reading: higher = stronger binding
All sequences stand within: GGGAGUUCUACAGUCCGACGAUC … UGGAAUUCUCGGGUGCCAA
Construct (chain): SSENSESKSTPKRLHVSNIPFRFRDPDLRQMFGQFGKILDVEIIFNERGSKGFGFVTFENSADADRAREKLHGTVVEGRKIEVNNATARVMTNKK
| Strand | RBNS enrichment (R) |
| --- | --- |
| AUGGUUUUUAUAGUUUGUUGAUAAAGUGGACACAGUAUUGUCUGAGCAGUUAUAUUUUAAUGCAUUUCAGUGUUUAUAGUAGAAGUUUAGUGGAUAAAACUUUAAGUCCA | 0.509 |
| AAACUGAAUCGUGGGUGCAUUUCAGAAGAGAACGUUCCAUAUAAUGCAGCUAACCAAGGACUCCUGUGUUUCUAUAAGCUAAUGCUCCAGAAACUUUGCCAACCUGUUAG | 1.02 |
| AAAUCUCCCUGUUGACUCAGUGCCUCCUCGGCUUCCUUGGAAGCCCAGAGGGACUAUGAUCUGAUGGCCUCUAGGUGUUGUUUUGUGCAAUAUACAGCCCCAGGUAGGGA | 0.207 |
| UGGAGAACUUUCCAUCUGCUUGUAUUUUCCAUACACAUCCCCAGCCAGAAGUUAGUGUCCGAAGACCGAAUUUUAUUUUACAGAGCUUGAAAACUCACUUCAAUGAACAA | 0.799 |
| UGGGCCCACUGAUUUCCAGCCCCACCAUGUGUGCUGUUUUCAGAUGUGAUUGAGGGGUGUUCUGCCCUGCCUCCACUGUCACAGCCUUUAAUAAAGAUGUGAAUCUUGAA | 0.3 |
| GAAUGGUUUACAUAUUUCUGCAAAUGGAGAAAAUGUAAAUAUAAACCCAUGACCAUUUACUAAGUGAAUGAUGUAUAUUUCCCAUUAUCAGAAGUAUAAUGAAGUUGGAA | 0.428 |
| AUUUUUCUACUUUCUUUUUGCUGUUGAUGAAUUGUUUCAUUAUUAAAUAUAUGCAUGUAUCAAAGCUUUCAUACUCCAUGUGUCAUUUCUAAUUGUAUCCCAAACAUUAG | 2.4 |
| UUGGAAAGAAAGAUGAAAACGUAGAAUGUAGUGCUAAGAACGUUUCCCGUUCUCUCAUGCCUUCGCCCUCCGCCCUCCGAGAUCCCUGAAGGAGGAAAGAGAUAAAGGUU | 0.413 |
| GUAACUAAGGGAAUUUGUUUCAGUCUGGUUCUCCACUUACUAUACUGUGUUUUCAAGGUAAAUGGUCACUCUACAUUUAUAAACACAGGUCUGAUUGUACUUGAGGUAUA | 0.442 |
| AACUAGACCUAGGAUCUCAAAAGUUUUAAAACUUUGACGUUUUCAUAUGUUUGUUUAUUAAUAGGAUUUUAAAAAAAAUGAACAUCUUUUUAAAGCUGGGAAAUGUAUAU | 0.738 |
| CCACUUAAAUAAAGUCUUUAAGUAGCUGAAGGAUUAACAGUCUGGUGGGAGGCAAGCCAUUGAACUGAACCACGAGGAAAGUAUAUUUUCUUCUUUUCUUUUCCUGCCAA | 0.418 |
| CAUGCAUCCUUCGUCUGUCUCAUCAGCACUGGCGUCAUUCCUUACAGUUUACAGAACUCAUGUAACUUGUAGCUAUAAACAUUUUGUGCCAUUAAAGCUCUCACAAAACC | 0.935 |

Excerpt of the above (block 3):
| Strand | E-score |
| --- | --- |
| ACGCATGG | 0.0917 |
| AATCCGTC | 0.185 |
| CGTTCCGC | 0.281 |
| AAGGCGCC | 0.234 |
| AGCAGGAC | -0.129 |
| AACGTCGC | 0.0896 |
| AGGCGTTG | 0.0774 |
| ACGTGGCG | 0.147 |
| CAGGATTC | -0.158 |
| AGCAACGC | 0.15 |
| CGGACGCA | 0.199 |
